Published values of several laboratories.
A part holds a random share of what one study measured.

Study 1 — technique: RNA Bind-n-Seq; molecule type: RNA; matrix: in vitro; tested at: 200 nM; notes: whole 134-nt RNA, ends assumed; with: 150 mM LiCl; baseline: input library; reading: higher = stronger binding; library: 7-deaza-guanosine replaces G
Target: Ras GTPase-activating protein-binding protein 1, full length (G3BP1, Homo sapiens, UniProt Q13283)
Sequence of UniProt Q13283 (whole entry, looked up): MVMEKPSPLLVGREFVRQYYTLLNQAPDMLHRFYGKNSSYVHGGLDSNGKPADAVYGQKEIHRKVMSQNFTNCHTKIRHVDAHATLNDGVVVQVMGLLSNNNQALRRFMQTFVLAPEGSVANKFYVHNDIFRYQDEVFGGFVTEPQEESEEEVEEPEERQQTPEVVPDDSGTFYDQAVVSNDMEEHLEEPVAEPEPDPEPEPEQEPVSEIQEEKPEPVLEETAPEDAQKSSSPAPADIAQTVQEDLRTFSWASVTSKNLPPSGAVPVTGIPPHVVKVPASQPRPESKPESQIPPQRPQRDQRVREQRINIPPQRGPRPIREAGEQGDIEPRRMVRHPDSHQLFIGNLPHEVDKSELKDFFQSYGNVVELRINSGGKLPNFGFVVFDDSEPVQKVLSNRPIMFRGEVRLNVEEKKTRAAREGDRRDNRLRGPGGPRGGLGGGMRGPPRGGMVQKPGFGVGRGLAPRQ
Shared flanks, not repeated: GGGAGUUCUACAGUCCGACGAUC … UGGAAUUCUCGGGUGUCAAGG
| Sequence | log2 enrichment |
| --- | --- |
| AUUCUUCAUUGAGGGUGAGGAUCUCCCAAUGGGAGACUGCUCUGAAAAGAGCAUGUGCUUUUUGAAUUAGAUAACCUACUAUAAUCAUGG | -1.4 |
| GUCCUGUGCUACACAUCGUAUGUACCGAAUCGGUUUUUGGGUUUUUGGGGUUUUUGGGGAAAGUAUUAUGUUACGCCGUUCGGAUCUGCA | -0.427 |
| AAGUCCUGUGCUACACAUCGUAUGUACCGAAUCGGGAAAGGGAAAGGGUUUUUGGGAAAGUAUUAUGUUACGCCGUUCGGAUCUGCACUU | -1.15 |
| UAACUUUAGAGGAGGAUCUGAUGGAUAUGGCAGUGGACGUGGAUUUGGGUAUGGCUAUAAUGGGUAUGGAGGAGGACCUGGAGGUGGCAA | -0.362 |
| UCAAGUCCUGUGCUACACAUCGUAUGUACCGAAUCGGGAAGGGAAGGGGAAGGGGAAAGUAUUAUGUUACGCCGUUCGGAUCUGCACUUC | -0.0382 |
| UGGGAGGUGGAUUUUGUUUAUUUUUUUAGCUCAUUUCCAGGGGUGGGAAUUUUUUUUUAAUAUGUGUCAUGAAUAAAGUUUUUUUUGAAA | -0.122 |
| ACCAUGAAAGUGGGCAUCUUUGGGAAGUGGGGCAAGGGGGGGAUAGGGAGGGGGGUAACACUUUGGGAACAGGUGGUCCCAGGUCGUUUC | 0.32 |
| ACCAUGCAGGUGGGCAAAUUUGGGAAGUGGGGCAAGGGGGGGAUAGGGAGGGGGGUAACACUUUGGGAACAGGUGGUCCCAGGUCGUUUC | 0.112 |

Study 2 — technique: RNA Bind-n-Seq; molecule type: RNA; matrix: in vitro; tested at: not given; baseline: input RNA pool; reading: higher = stronger binding
Target: RING finger protein unkempt homolog, zinc fingers 1-6, GST-SBP tag (UNK, Homo sapiens, UniProt Q9C0B0, residues 30-357)
Notes: RNA with constant flanks, human and mouse sites, ends assumed
Shared flanks, not repeated: GGGAGUUCUACAGUCCGACGAUC … CAACAGAGGAUUGAGCAUCA
Construct (chain): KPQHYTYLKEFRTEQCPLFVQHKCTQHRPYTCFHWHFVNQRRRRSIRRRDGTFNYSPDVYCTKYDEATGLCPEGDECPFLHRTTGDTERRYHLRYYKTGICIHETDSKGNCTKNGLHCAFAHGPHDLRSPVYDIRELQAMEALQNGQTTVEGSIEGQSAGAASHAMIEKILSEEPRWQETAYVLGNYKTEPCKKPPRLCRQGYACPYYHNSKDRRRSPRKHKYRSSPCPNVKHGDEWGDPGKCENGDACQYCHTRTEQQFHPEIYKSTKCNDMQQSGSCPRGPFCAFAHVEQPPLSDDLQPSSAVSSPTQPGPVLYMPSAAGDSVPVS
| Sequence | bound/input enrichment [ratio] |
| --- | --- |
| AAAGAGCAUUUACAAAUAAAGCAAAUUUGCUUUAUUUUUUAAAACUUUUUUAAAAAAUGCAAUUUCCUUAAUUACAUUAAAAAUUUAACUAUAAAAUUUGGUAACCACAUUGUUUUUCUU | 2.13 |
| ACGGCCAUGGCAACUAGUCUCACGAAUGUAGGAAACUCAUUUAGUGGUCCAGCUAAUCCUUUAGUGUCUAGAUCUAAUAAGUUUCAGAACUCGUCAGUGGAAGAUGAUGAUGAUGUUGUU | 10.3 |
| CCUGCUCAGAUCACCAUGAAAGUAAUCCAAGGCCUAUAUAGUGGGGUCACCACAGUGGAACUGGACACCCUGGCUGCUGAGACAGCCGCGACCUUGACCACGAAGCACCCUGACUAUGCC | 0.14 |
| GCGUUAGGGACUCCGAAACAGCAGCUCCAUACAAUGGCUCAGAAAACCAUCUUUAGUACUGGCACACCAGUGGCUGCAGCUACAGUAGCACCUAUUCUGGCAACCAACACGCUUCCUUCA | 0.287 |
| UGCACAGGCCUCACAGUGCGUCUGGCCGGCGCUUUAUAGCUGCAGCCUGGGCGGCUCCGCUAGCUGUUUUUCGUCUUCCCUAGGCUAUUUCUGCCGGGCGCUCCGCGAAGAUGCAGCUCA | 0.134 |
| CGUAUUCCGAGCUCUCUGGAAAGAGAGGAAACUCCAGGGAAGAUGUGGCUGAAGCUUUUUUUCUUGCUCCUCUAUUUCCUGGUCCUGUUCGUCCUGGCCAGGUUUUUUGAGGCCAUUGUG | 0.125 |
| UAAUUUUGGCAGGAGUUAGAAUAAAUCCUUGGAGCCUGGGCCCCUCUGUCCUUGGCCCUCCAUAGCCUUCUCGCUAGAGGGGGAAAGAAGGUUCUCGGGCCGGCCCCACUACCAAGCAUA | 0.159 |
| CAUACUGUUUCCAGCUGUUGGUUCUGGAUAACUCUCGAGUGCGUCUCAAACCCAAAGCCAGGUUGACACCCAAAAUACAGAAACUUCUUAAUCGAGAAGCGAGAAACUAUACACUCAGUU | 0.0939 |

Study 3 — technique: universal PBM; molecule type: double-stranded DNA, one strand shown; matrix: in vitro; tested at: 600 nM; reading: higher = stronger binding
Target: Sal-like protein 4, full length isoform A (SALL4, Homo sapiens, UniProt Q9UJQ4, residues 1-1053)
Sequence of UniProt Q9UJQ4 (whole entry, looked up): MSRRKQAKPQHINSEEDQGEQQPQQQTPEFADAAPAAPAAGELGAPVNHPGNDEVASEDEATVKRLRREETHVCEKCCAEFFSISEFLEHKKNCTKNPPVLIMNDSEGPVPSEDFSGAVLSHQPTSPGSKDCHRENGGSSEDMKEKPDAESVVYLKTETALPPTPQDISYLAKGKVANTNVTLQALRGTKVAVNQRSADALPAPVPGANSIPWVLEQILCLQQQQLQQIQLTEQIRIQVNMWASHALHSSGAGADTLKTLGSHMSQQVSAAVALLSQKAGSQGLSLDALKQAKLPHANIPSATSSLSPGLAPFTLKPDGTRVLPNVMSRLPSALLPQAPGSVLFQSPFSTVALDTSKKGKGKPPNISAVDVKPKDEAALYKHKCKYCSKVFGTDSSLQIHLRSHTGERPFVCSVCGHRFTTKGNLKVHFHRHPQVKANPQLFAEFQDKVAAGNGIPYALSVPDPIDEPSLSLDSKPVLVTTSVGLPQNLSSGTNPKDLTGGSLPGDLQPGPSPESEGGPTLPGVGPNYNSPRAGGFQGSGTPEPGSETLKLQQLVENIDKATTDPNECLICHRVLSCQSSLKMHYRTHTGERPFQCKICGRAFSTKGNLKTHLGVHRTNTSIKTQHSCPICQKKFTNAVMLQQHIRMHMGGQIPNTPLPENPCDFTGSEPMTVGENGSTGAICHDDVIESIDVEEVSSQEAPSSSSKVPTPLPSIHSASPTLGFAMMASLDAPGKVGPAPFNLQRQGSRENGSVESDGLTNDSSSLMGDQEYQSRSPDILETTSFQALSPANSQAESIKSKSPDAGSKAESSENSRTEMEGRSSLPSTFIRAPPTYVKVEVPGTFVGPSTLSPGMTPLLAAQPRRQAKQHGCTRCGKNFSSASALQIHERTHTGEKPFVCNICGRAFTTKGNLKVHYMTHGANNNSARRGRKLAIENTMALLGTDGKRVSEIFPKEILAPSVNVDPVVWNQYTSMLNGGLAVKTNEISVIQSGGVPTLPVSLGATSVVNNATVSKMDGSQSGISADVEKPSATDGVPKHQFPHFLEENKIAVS
Notes: 8-mer, flanks averaged, mean of replicates
| Sequence | E-score |
| --- | --- |
| ACAGAGCA | 0.158 |
| CGTGACAA | 0.021 |
| CTTCAACA | 0.184 |
| AGTACGAA | 0.147 |
| GTGGACCA | -0.242 |
| CGATAGAA | 0.0768 |
| AAATGCGC | -0.0297 |
| AGCACAGC | -0.137 |
| GGAGAGTA | 0.122 |
| CACATCCC | -0.167 |
| CTTGGATC | -0.0848 |
| TCCACTCA | 0.00434 |
| TACGAAAA | 0.278 |
| AATGCGTA | 0.192 |
| CCATCTCC | -0.0526 |
| CCAAGGCG | -0.237 |
| CGCTTCAC | -0.129 |
| AAAAACGG | -0.0234 |
| CAAGGGAA | 0.121 |

Study 4 — technique: aptamer microarray, sandwich; molecule type: DNA with 2'F-ANA; matrix: in vitro; tested at: 200 nM; with: Cy3 exosite-II aptamer, 400 nM; reading: higher = stronger binding; sequence: GGTTGGTGTGGTTGG
Target: Prothrombin, mature alpha-thrombin (F2, Homo sapiens, UniProt P00734)
Notes: whole 15-mer aptamer, many near background
| Modification | mean fluorescence intensity |
| --- | --- |
| 2'F-ANA at 2 3 5 6 11 13 15 | 65.5 a.u. |
| 2'F-ANA at 4 5 7 8 9 10 15 | 46.9 a.u. |
| 2'F-ANA at 2 4 8 11 12 | 541 a.u. |
| 2'F-ANA at 1 2 3 4 6 9 10 11 12 13 14 15 | 58.8 a.u. |
| 2'F-ANA at 1 4 5 7 8 9 10 12 14 15 | 50.2 a.u. |
| 2'F-ANA at 5 6 10 12 13 14 15 | 47.9 a.u. |
| 2'F-ANA at 2 4 6 8 9 10 11 12 14 | 75.3 a.u. |
| 2'F-ANA at 3 4 6 10 11 13 15 | 199 a.u. |
| 2'F-ANA at 3 7 10 11 12 13 | 616 a.u. |
| 2'F-ANA at 1 2 6 9 10 11 13 | 50.3 a.u. |
| 2'F-ANA at 3 5 6 8 9 10 15 | 53.5 a.u. |
| 2'F-ANA at 1 4 5 12 13 14 15 | 50.4 a.u. |
| 2'F-ANA at 3 5 9 10 12 15 | 66.3 a.u. |
| 2'F-ANA at 1 2 9 10 11 13 | 51.3 a.u. |
| 2'F-ANA at 1 3 6 7 10 11 12 | 98.8 a.u. |
| 2'F-ANA at 1 3 5 6 7 8 15 | 71.7 a.u. |
| 2'F-ANA at 1 3 5 7 9 11 12 14 | 49 a.u. |
| 2'F-ANA at 2 3 4 5 6 8 9 10 12 13 14 | 51.6 a.u. |

Study 5 — technique: EMSA with sequencing; molecule type: double-stranded DNA, one strand shown; matrix: in vitro; tested at: 10 and 20 nM; baseline: negative control set to 0; reading: higher = stronger binding
Target: Hepatocyte nuclear factor 3-alpha (Foxa1, Mus musculus, UniProt P35582, residues 1-468, full length assumed)
Notes: whole designed probe, mean of two concentrations, ends assumed
Shared flanks, not repeated: GTGAGCGGTGCCCATTGATGGGGAAC … TTTCACTGGGATCGTGGGGAC
Residues (chain): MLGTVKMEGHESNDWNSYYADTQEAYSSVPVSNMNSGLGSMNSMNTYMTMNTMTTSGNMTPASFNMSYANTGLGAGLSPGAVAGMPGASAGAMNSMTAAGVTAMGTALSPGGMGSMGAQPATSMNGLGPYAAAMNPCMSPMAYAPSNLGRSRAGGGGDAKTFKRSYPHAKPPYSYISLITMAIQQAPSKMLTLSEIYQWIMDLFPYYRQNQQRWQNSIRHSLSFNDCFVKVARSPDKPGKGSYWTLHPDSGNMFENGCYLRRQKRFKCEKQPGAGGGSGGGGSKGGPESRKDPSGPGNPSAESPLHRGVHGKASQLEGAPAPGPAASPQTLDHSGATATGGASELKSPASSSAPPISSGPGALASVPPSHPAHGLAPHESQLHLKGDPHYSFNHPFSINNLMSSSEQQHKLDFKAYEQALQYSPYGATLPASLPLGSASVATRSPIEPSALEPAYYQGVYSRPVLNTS
| Sequence | normalised bound fraction [ratio] |
| --- | --- |
| ATTTGTGTTACTTCCTAATTTGGGCAATTATACAATTGCTGTGAACATCTGAGTATAGGTTTTCATGTAAACAGAATTTTTCTTTCATCTAGGGTAATTTCCTAAGTGTGGAGTTGCTGAGTCATATGATAAATGTATGGTTAATAGTATAAGAAGCTGCCAAACTTTTGTGCATAGTGGACAGACCGTTTTA | 0.0526 |
| AAATTGGACACTAGGTGAAAATTCAAGCCTAATCGCTAAAGATTAAGAAAGACGCAATAACCACATTATTGGGGAAAAAAAAGCAAATCTCAGAGTAAACAGGAAGAAATGTTCTTTCTTATTTTTCCCAAAGAACCAGCTCTTTAAAATTGAGTTTTTAGATGATAATTTCATGCTTGGTAATACCCACGTG | 0.0346 |
| ATCTTCCCCCTCTTCCTTGCCCCACCAGCTCACCTTCCCGGGTTGTTTACTTTGAGCAAAGTAAACAAAGCCGGCATTCGTTAACCCTCTTCACGCGCATACTGCTGTTTGCTCTGGATGAATCATGGTCCTTTGGCGACGCCAGGCTCCGGGAGAGCAAAGCACCGTGTCAGGGCCATGATCCGGGGTGGCC | 0.534 |
| TGATGAGAAACATGATAATTATTTAGTCTGAAAGGATCTTCTCCAATAATTTTTTTTTGTCGTGATACATTCCTGACTTCTCGACGCCCAAATGCAAACAAACCTAAATTGAGGGAAATTCTATGCAATACCTAACCATTATTCATCAAATGTACACAGGAGTACAGTGACACAATCATGGTTCACTGTAACC | 0.361 |
| TAGTCCCTCTTTCAAAAAACTTGCTAGATGCAAAACGATAGATATGGATATGGACGTGGACACAGGCCTAGGTATAGACAGATACACTTAATGTAAACATGCACGTATATACATTCAAGTACTGTTAGGTACTGGGGATCCAAAGGTGGCTTCTATTAACAACAGCAGCCCTTACTCACTGAACATATCCTGT | 0.358 |

Repeated from above (study 4):
| Modification | mean fluorescence intensity |
| --- | --- |
| 2'F-ANA at 3 4 6 10 11 13 15 | 199 a.u. |
| 2'F-ANA at 1 2 6 9 10 11 13 | 50.3 a.u. |
| 2'F-ANA at 1 4 5 12 13 14 15 | 50.4 a.u. |
| 2'F-ANA at 2 4 6 8 9 10 11 12 14 | 75.3 a.u. |
| 2'F-ANA at 1 2 3 4 6 9 10 11 12 13 14 15 | 58.8 a.u. |
| 2'F-ANA at 1 3 6 7 10 11 12 | 98.8 a.u. |
